Published values pooled from the literature.
Each numbered part is a random draw from the data of one study; scales do not carry over between parts. Positions count from the first letter of the parent shown.

Study 1
Target: RNA binding protein fox-1 homolog 2, RRM domain, GST-SBP tag (RBFOX2, Homo sapiens, UniProt O43251-10, residues 100-194)
Method: RNA Bind-n-Seq
Form: RNA
Sample: in vitro
Concentration: 365 nM
Setting: natural RNA segment, single round, ends assumed
Reference: no-protein control
Direction: higher = stronger binding
Quantity: RBNS enrichment (R)
Shared flanks, not repeated: GGGAGUUCUACAGUCCGACGAUC … UGGAAUUCUCGGGUGCCAA
Construct (chain): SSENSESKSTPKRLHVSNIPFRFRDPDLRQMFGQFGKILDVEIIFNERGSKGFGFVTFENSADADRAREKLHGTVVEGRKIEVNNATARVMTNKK
UACUGGCUUAGUAAUCAAUACCAGUAAUUACCAUAGAACUUUAUCUGACUACCCAACCAUAUCAAAAGAGUACUUUUUUCUGGGUUAAUAAUACUAGCUUUGAUACAUAA: 0.698
AGAUGGAAUUACAGCAAAAUGUGCUCAAUGUAUGUGUCUGCUCACAACACUGGGAGAUGUGUUUGCCAGUAAGUUGCUCAUCACAAGAGCACCAGACUUGGGGGGUGUAA: 0.453
CCCUCUCUAUUACCACAUUUUCUCUUAUUAACAGUAUCUCAGAAUAAUUUUCUUUCCUUAGAAACCUGAGAGAAUGCUAGUCAUAACUGUACUAGUUACUAUGAAAAUGG: 0.44
UGACGGUAAUUAGAAGAAGCAGAGGCUCACACAUCUCCUGGCACGGUCUUAUCUCCCUCGUGUGUUGAACUUGCUGUCCGUCCAUGCACCCUACGAAGGCCAUGCUGUGC: 0.431
CUUGUGACUUCUUAAGGCUCUGUAUGAAUUUGGAAGUAUAUGUUGAUAUUGCCAUGCAUGGUCAUUCAUACUUCUAAUACCAGCACCUAUAAGGCUGAGGCAGAAGGUUC: 0.968
GUAUUGGGUGAGGGGCUUUCUCCCUUUACCUGCCUCUUCUUGCUUGCUAAUAGUAAGUUCUUUGUGCACCUUCCACCACUUCUGAGCCACUACUAUUCAAGUAGAGAUUU: 0.287
GGAGCACACACUUCCAUUAUGCUUGGCACAUAGGUCUCCUUGUGGUGGGUGGGAUCUGGGGGAGGUAGAUUUUCCUCAUCUCUCUUCCUGCCUCCCUCCCAUCUCCUGAU: 0.23
UGGAGGAGUGGUCCCUUAAUGAUCCCCCAAAUAUGUGUGUGAUGUGUUUCUAAACUGCUGCUUUGUCUAUUUCCUGCAUUUUAUAGUGAAACUACUAAACAUAAAUAGAU: 0.511
GGGAACCUUGGGUUAUCAUGUCACGAUGCCUGUGACCAUGAUUUCACGAAGUAGGUUUCCUCUGGCUCCCUACAGAGCAAUAUUCCAAAGGAACAUUUUAACUGUAAAGG: 0.248
AGGUCUACUCCAAAGUCCUCUCUGCCAUCUUCGGACCAUCCUGGCCCUACUUCUGUGUGCUCGAGCUGCCCCAGCCAUCACUGAGCCCACUCAGGACUGCUCCUGGAAGA: 0.336
CGGGGACCCACUCUGCCCAGCCGGAGGGACGCGGAGGAGGAAGAGGGUAGACAGGGGCGACCUGUGAUUGUUGUUAUUGAUGUUGUUGUUGAUGGCAAAAAAAAAAAAGC: 0.811
UACCUGCACAUCUGUUUGCAUGGUCAUGUGUACAUUCAAACAUGCACAUAAAGUGAACAAGAAAGUCAGCCAUUAUUUCACGCCAGACUUGAUUCCAUCCUGAGAAUUCA: 0.233

Study 2
Target: Histone acetyltransferase KAT6A, winged helix 1, GST fusion (KAT6A, Homo sapiens, UniProt Q92794, residues 1-85)
Method: protein binding microarray
Form: double-stranded DNA, one strand shown
Sample: in vitro
Concentration: not given
Setting: 8-mer, flanks averaged, mean of 2 arrays, mostly near background
Reference: not given
Direction: higher = stronger binding
Quantity: E-score
Target sequence (chain): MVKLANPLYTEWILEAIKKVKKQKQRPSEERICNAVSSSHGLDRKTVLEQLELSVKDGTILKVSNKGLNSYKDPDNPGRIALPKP
ATTCCCAG: -0.131
ACTAGCAA: -0.0844
ACGGGAGT: 0.19
AGGAGACG: 0.0761
ATGAGCGC: 0.275
ATGTCGAA: -0.133
ACAGAGGA: -0.198
CAGGCAGA: -0.184
GTTAGACA: -0.119
AAAAGAGT: -0.107
TCACTAGA: -0.0175
CACGCACG: 0.28
ATTAGACG: 0.0168
CTCGCCAG: -0.0178
TGTCGACA: -0.205
CGAAGTAG: -0.0722
GCATGAAA: -0.222

Study 3
Target: Fragile X messenger ribonucleoprotein 1, C-terminal low-complexity region (Fmr1, Mus musculus, UniProt P35922)
Method: RNA Bind-n-Seq
Form: RNA
Sample: in vitro
Concentration: 200 nM
Setting: whole 134-nt RNA, ends assumed
Added: 150 mM KCl
Reference: input library
Direction: higher = stronger binding
Quantity: log2 enrichment
Shared flanks, not repeated: GGGAGUUCUACAGUCCGACGAUC … UGGAAUUCUCGGGUGUCAAGG
GAAACUACCCGUGUGUAAAAAGAAGAUUGGCUUAAAAUGGCUACUGUGAUGGGAACAGUGUCUUAGGGAGAUGCAGCUUGGACUUGAGGU: 0.22
UCCUGUGCUACACAUCGUAUGUACCGAAUCGUGUGUGUGUGUGUGUGUGUGUGUGUGUGAAAGUAUUAUGUUACGCCGUUCGGAUCUGCA: 1
UCUGGACAUGCAGGUGGACCAGUCAGUGCCAGAGUAAGUUGUUGUUUUCUUAAAAGAAAAAAAAAAAUGUAAAAUCAUCUAACCCUAACC: 0.255
UCAAGUCCUGUGCUACACAUCGUAUGUACCGAAUCGGGUUUGGGUGGGUUUGGGAAAGUAUUAUGUUACGCCGUUCGGAUCUGCACUUCC: 1.42
GCAGGAAGUAAAAACAAAUGGAAUUGCUUCGGAUAGUGGCAGGGGUGGGGGUUGCUAAGGAAAGGGUGGGAUGGGAGUGGGUAAAGAGUU: -0.0543
CACAGACAACACGCACCCACACAGACACAGAGGGAAGGGGUUGGGAUGGGGAAAAGGUGCACAGCAGGGCGGGGUAGGACCCCAGCCCCU: 1.25
GCAGGAAGUAAAAACAAAUGGAAAUGCUUCGGAUAGUGGCAGGGGUGGGGGUUGCUCAGGAAAGGGUGGGAUGGGAGUGGGUAAAGAGUU: 0.402
CUGUGCUACACAUCGUAUGUACCGAAUCGGGGUUUUUUUGGGGAAAAAAAGGGGAAAGGGGAAAGUAUUAUGUUACGCCGUUCGGAUCUG: -0.384
GCCACUGUUCACCAGUCCUACCCACACCAUGCCACACAGCUCCAUGCCCACCAGCCGCAGCCGGCUACCACGCCUACUGGAAGCCAGCCG: -0.12
CCUGUGCUACACAUCGUAUGUACCGAAUCGGGAAAAAAGGGAAAAAAGGGGAAAAAAGGGAAAGUAUUAUGUUACGCCGUUCGGAUCUGC: -0.601
UGGCCCUGGUGGCAUGCGGGGAGGAAGAGGUGGCCUGAUGGAUCGUGGUGGUCCCGGUGGAAUGUUCAGAGGUGGCCGUGGUGGAGACAG: 0.449
ACCAUUCAGGUGGGCAUCUUUGGGAAGUGGGGCAAGGGGGGGAUAGGGAGGGGGGUAACACUUUGGGAACAGGUGGUCCCAGGUCGUUUC: 0.715
AGUCCUGUGCUACACAUCGUAUGUACCGAAUCGGCCCCCGGCCCCCGGGGCCCCCGGGAAAGUAUUAUGUUACGCCGUUCGGAUCUGCAC: -0.787
GCAGGAAGUAAAAACAAAUGGAAAUGCUUCGGAUAGUGGCAGGGGUGGGGGUUGCUAAGGAAAGGGUGGGAUGGGAGUGGGUAAAAAAUU: -0.189

Study 4
Target: ABI1, truncated, D143A, DHFR fusion (Arabidopsis thaliana)
Method: DHFR PCA, deep sequencing
Sample: yeast
Setting: methotrexate growth selection, single substitutions
Added: (+)-ABA 0.39 µM
Reference: wild-type fitted maximum
Direction: higher = stronger binding
Quantity: relative binding score
Starting sequence: PYL1, truncated, DHFR fusion (Arabidopsis thaliana); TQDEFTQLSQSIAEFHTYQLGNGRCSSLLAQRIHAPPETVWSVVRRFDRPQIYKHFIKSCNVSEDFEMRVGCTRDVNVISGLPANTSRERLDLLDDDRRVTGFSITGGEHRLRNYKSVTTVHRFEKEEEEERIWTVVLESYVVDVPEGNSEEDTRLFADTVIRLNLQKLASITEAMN; partner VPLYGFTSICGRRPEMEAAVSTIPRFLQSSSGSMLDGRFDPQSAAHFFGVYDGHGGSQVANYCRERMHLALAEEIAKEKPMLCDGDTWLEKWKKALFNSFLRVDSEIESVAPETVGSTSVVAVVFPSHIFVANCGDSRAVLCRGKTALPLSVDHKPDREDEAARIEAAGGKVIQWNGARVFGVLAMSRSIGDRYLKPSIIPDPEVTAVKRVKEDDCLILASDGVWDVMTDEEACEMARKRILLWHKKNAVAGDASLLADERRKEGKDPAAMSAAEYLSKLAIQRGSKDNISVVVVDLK
K116E: -10.5%
D97E: 70.9%
I79E: 9.02%
T1S: 42.1%
F15M: 0.464%
T160H: 5.98%
T73H: 42.9%
Y141Q: -20.4%
I79P: -7.55%
G71C: -3.71%
T154Q: -34.7%
V62M: 10.7%
E152N: 10.9%
S150P: 8.91%

Study 5
Target: CCNA2, cyclin fold, Cln2 fusion (human)
Method: yeast growth competition, sequencing
Sample: yeast
Setting: strong parent motif
Reference: not given
Direction: higher = stronger binding
Quantity: normalised enrichment score
Starting sequence: PKMYT1 docking peptide (human); SFEPRNLLSLFED; partner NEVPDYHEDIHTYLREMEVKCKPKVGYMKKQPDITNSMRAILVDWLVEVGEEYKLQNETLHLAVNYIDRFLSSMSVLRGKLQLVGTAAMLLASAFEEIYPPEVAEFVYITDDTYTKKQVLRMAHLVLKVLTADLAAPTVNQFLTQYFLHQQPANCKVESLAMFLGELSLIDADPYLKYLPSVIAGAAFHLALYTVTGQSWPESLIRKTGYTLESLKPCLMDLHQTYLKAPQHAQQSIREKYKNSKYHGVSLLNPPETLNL
SFENRNLLSLFED [P4N]: -0.799
SFDPRNLLSLFED [E3D]: 0.0863
HFEPRNLLSLFED [S1H]: 3.52
SFEPRNLLSTFED [L10T]: 1.83
SSEPRNLLSLFED [F2S]: -0.266
SFEPRNLLVLFED [S9V]: 2.38
SCEPRNLLSLFED [F2C]: 1.56
SFEPTNLLSLFED [R5T]: 0.84
SFMPRNLLSLFED [E3M]: 3.96
SFEPRLLLSLFED [N6L]: -1.16
SFPPRNLLSLFED [E3P]: 2
SFEPRNLLSLFRD [E12R]: 2.14
SFQPRNLLSLFED [E3Q]: 4.04
SFEPRNKLSLFED [L7K]: -0.682
SFEIRNLLSLFED [P4I]: -1.98
SFEPRNLLSLFGD [E12G]: 2.23
KFEPRNLLSLFED [S1K]: 3.41
PFEPRNLLSLFED [S1P]: 3.28
SFEPRNHLSLFED [L7H]: -0.399
MFEPRNLLSLFED [S1M]: 4.42
SIEPRNLLSLFED [F2I]: 0.828
SFEPRNLESLFED [L8E]: -2.14
SFEPRNLLSLFEH [D13H]: 1.81
SFEPRNLLSSFED [L10S]: 1.74
SFEWRNLLSLFED [P4W]: 0.433

Study 6
Target: BATF3, bZIP domain (human)
Method: DHFR protein complementation
Sample: yeast
Setting: single substitutions, most at no-binding floor
Reference: wild-type JUN-FOS pair
Direction: higher = stronger binding
Quantity: binding fitness
Starting sequence: JUN, bZIP domain (human); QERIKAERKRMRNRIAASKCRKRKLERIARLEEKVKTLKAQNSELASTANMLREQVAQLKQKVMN; partner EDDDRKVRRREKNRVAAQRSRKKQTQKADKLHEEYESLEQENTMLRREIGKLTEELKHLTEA
Q55D: 0.00151 natural log
L45V: -0.465 natural log
E33W: 0.126 natural log
L59C: 0.156 natural log
E44W: 0.0504 natural log
E33H: 0.118 natural log
L59R: 0.189 natural log
R53W: -0.0508 natural log
R53C: -0.0877 natural log
L59H: 0.147 natural log
T37H: 0.325 natural log
E33C: 0.133 natural log
K36C: 0.331 natural log
A49C: 0.167 natural log
E54N: 0.192 natural log
K39A: 0.109 natural log
K39H: 0.173 natural log
